Measurements of several laboratories.
Protocols differ between the studies behind these lines. ± gives the spread as reported.

The Cmax of Cn1c(=O)oc2ccc(-c3ccc(CC(C#N)NC(=O)C4CNCCCO4)c(F)c3)cc21 (stereo not shown) is reported as 53.7 ng/mL (human volunteers, plasma; 15 mg single dose, fasted, geometric mean).
CCc1c2c(nc3ccc(O)cc13)-c1cc3c(c(=O)n1C2)COC(=O)[C@]3(O)CC has a Cmax of 54 ng/mL (human patients, plasma; intravenous, 24 mg/m^2 of parent drug).
With CCn1c(=O)n(CCO)c(=O)c2c1nc(/C=C/c1ccc(OC)c(OC)c1)n2C the Cmax was 14.1 ng/mL (healthy humans, plasma; oral, 40 mg, with: rifampin 600 mg/day).
For CC[C@H](C)[C@H](NC(=O)[C@H](CC(C)C)NC(=O)[C@H](Cc1c[nH]c2ccccc12)NC(=O)[C@H](C)NC(=O)[C@@H](NC(=O)[C@H](Cc1ccccc1)NC(=O)[C@H](CC(=O)O)NC(=O)[C@H](CCCNC(=N)N)NC(=O)[C@H](C)NC(=O)[C@H](C)NC(=O)[C@H](CC(C)C)NC(=O)[C@H](C)NC(=O)[C@H](CC(=O)O)NC(=O)[C@H](CC(C)C)NC(=O)[C@@H](NC(=O)[C@@H](NC(=O)[C@H](C)NC(=O)[C@H](CC(C)C)NC(=O)[C@H](CCC(=O)O)NC(=O)[C@H](CO)NC(=O)[C@H](CO)NC(=O)[C@H](Cc1ccccc1)NC(=O)[C@@H](NC(=O)CNC(=O)[C@H](CCC(=O)O)NC(=O)CNC(=O)[C@@H](N)Cc1c[nH]cn1)[C@@H](C)O)[C@@H](C)O)[C@@H](C)CC)[C@@H](C)CC)C(=O)N[C@@H](C)C(=O)N[C@H](C(=O)N[C@@H](CCCCN)C(=O)N[C@H](C(=O)N[C@H](C(=O)N[C@@H](CC(=O)O)C(=O)N[C@@H](CCCCN)C(=O)N[C@@H](CCCCN)C(=O)O)[C@@H](C)O)[C@@H](C)CC)[C@@H](C)O, the Cmax was 0.371 nM (immunoaffinity LC-MS/MS; healthy human subjects, plasma; subcutaneous, 5 mg once weekly, day 36 after 6 doses, steady state, geometric mean).
With O=C(CCc1ccc(CNC(C(=O)OC2CCCC2)C2CCCCC2)cn1)NO (stereo not shown) the Cmax was 109 ng/mL (human, plasma; oral, 20 mg once daily, day 7, geometric mean).
With CCc1cc(Nc2nc(-c3ccc(-n4cnc(C)c4)c(F)c3)cs2)c(C)cc1C the Cmax was 409 ng/mL (human, both sexes, plasma; oral, 100 mg once daily, day 14, multiple dose, geometric mean).
The Cmax of [2H]C([2H])([2H])Oc1cc2c(cc1OC([2H])([2H])[2H])[C@H]1CC(=O)[C@H](CC(C)C)CN1CC2 is reported as 0.3 ng/mL (human CYP2D6 extensive metabolizers, plasma; oral, 25 mg, fasted, arithmetic mean).
CC(=O)N[C@H](CC(=O)O)C(=O)N[C@H](Cc1c[nH]c2ccccc12)C(=O)N[C@H](Cc1ccccc1)C(=O)N[C@H](CCCCN)C(=O)N[C@H](C)C(=O)N[C@H](Cc1ccccc1)C(=O)N[C@H](Cc1ccc(O)cc1)C(=O)N[C@H](CC(=O)O)C(=O)N[C@H](CCCCN)C(=O)N[C@@H](C(=O)N[C@H](C)C(=O)N[C@H](CCC(=O)O)C(=O)N[C@H](CCCCN)C(=O)N[C@H](Cc1ccccc1)C(=O)N[C@H](CCCCN)C(=O)N[C@H](CCC(=O)O)C(=O)N[C@H](C)C(=O)N[C@H](Cc1ccccc1)C(N)=O)C(C)C gave a Cmax of 33.6 ng/mL (human, statin-treated high-risk CHD, male, plasma; oral, 500 mg daily, day 13, 0 to 8 h, mean, undetectable set to 0).
Cc1nc(C)c(C=[N+]([O-])C(C)(C)C)nc1C has a Cmax of 9580 ng/mL (healthy human, both sexes, serum; oral, 600 mg twice daily, 7 days).
CCCOc1ccc(S(N)(=O)=O)cc1-c1nc2c(CCC)nn(C)c2c(=O)[nH]1 has a Cmax of 360 ± 110 ng/mL (healthy male humans, plasma; oral, 200 mg of udenafil, with: dapoxetine 60 mg).
O=C(O[C@@H]1Cc2c(O)cc(O)cc2O[C@@H]1c1cc(O)c(O)c(O)c1)c1cc(O)c(O)c(O)c1 gave a Cmax of 234 ± 77.6 nM (human, male, plasma; oral, 135 mg, catechin-rich beverage).
CC12CC(c3ccc(S(C)(=O)=O)cc3)C3=C4CCC(=O)C=C4CCC3C1CCC2(O)C(F)(F)C(F)(F)F (stereo not shown) gave a Cmax of 29.5 ng/mL (human, plasma; oral, 4 mg, dosed on day 4, geometric mean, with: itraconazole 200 mg/day).
O=C(CCc1ccc(CNC(C(=O)O)C2CCCCC2)cn1)NO (stereo not shown) has a Cmax of 69.5 ng/mL (human, plasma; oral, 20 mg once daily, day 7, geometric mean).
[2H]C([2H])([2H])NC(=O)c1ccc(N2C(=S)N(c3ccc(C#N)c(C(F)(F)F)c3)C(=O)C2(C)C)cc1F has a Cmax of 6200 ng/mL (healthy male human, plasma; oral, 160 mg, fasted, single dose).
With [2H]C([2H])(c1ccc(O)c(O)c1)[C@]([2H])(N)C(=O)O the Cmax was 2160 ng/mL (human, plasma; oral, 150 mg single, geometric LS mean, with: 37.5 mg carbidopa).
CC[C@H](C)[C@H](NC(=O)[C@H](CC(C)C)NC(=O)[C@H](Cc1c[nH]c2ccccc12)NC(=O)[C@H](C)NC(=O)[C@@H](NC(=O)[C@H](Cc1ccccc1)NC(=O)[C@H](CC(=O)O)NC(=O)[C@H](CCCNC(=N)N)NC(=O)[C@H](C)NC(=O)[C@H](C)NC(=O)[C@H](CC(C)C)NC(=O)[C@H](C)NC(=O)[C@H](CC(=O)O)NC(=O)[C@H](CC(C)C)NC(=O)[C@@H](NC(=O)[C@@H](NC(=O)[C@H](C)NC(=O)[C@H](CC(C)C)NC(=O)[C@H](CCC(=O)O)NC(=O)[C@H](CO)NC(=O)[C@H](CO)NC(=O)[C@H](Cc1ccccc1)NC(=O)[C@@H](NC(=O)CNC(=O)[C@H](CCC(=O)O)NC(=O)CNC(=O)[C@@H](N)Cc1cnc[nH]1)[C@@H](C)O)[C@@H](C)O)[C@@H](C)CC)[C@@H](C)CC)C(=O)N[C@@H](C)C(=O)N[C@H](C(=O)N[C@@H](CCCCN)C(=O)N[C@H](C(=O)N[C@H](C(=O)N[C@@H](CC(=O)O)C(=O)N[C@@H](CCCCN)C(=O)N[C@@H](CCCCN)C(=O)N[C@@H](CCCCN)C(=O)N[C@@H](CCCCN)C(=O)N[C@@H](CCCCN)C(=O)N[C@@H](CCCCN)C(N)=O)[C@@H](C)O)[C@@H](C)CC)[C@@H](C)O has a Cmax of 5.94 nM (healthy humans, plasma; subcutaneous, 10 mg once weekly, 6 doses, day 36, geometric mean).
With CN1CCC[C@]1(C)/C=C/S(=O)(=O)NC(=O)Nc1c2c(cc3c1CCC3)CCC2 the Cmax was 1800 to 16100 ng/mL (human, plasma; oral, 12.5 to 100 mg twice daily, 14 days, second dose at steady state).
CN[C@@H](CCOc1cccc2ccccc12)c1ccccc1 gave a Cmax of 14.2 ± 7.05 ng/mL (healthy male humans, plasma; oral, 60 mg of dapoxetine).
With CC[C@H](C)[C@H](NC(=O)[C@H](CC(C)C)NC(=O)[C@H](Cc1c[nH]c2ccccc12)NC(=O)[C@H](C)NC(=O)[C@@H](NC(=O)[C@H](Cc1ccccc1)NC(=O)[C@H](CC(=O)O)NC(=O)[C@H](CCCNC(=N)N)NC(=O)[C@H](C)NC(=O)[C@H](C)NC(=O)[C@H](CC(C)C)NC(=O)[C@H](C)NC(=O)[C@H](CC(=O)O)NC(=O)[C@H](CC(C)C)NC(=O)[C@@H](NC(=O)[C@@H](NC(=O)[C@H](C)NC(=O)[C@H](CC(C)C)NC(=O)[C@H](CCC(=O)O)NC(=O)[C@H](CO)NC(=O)[C@H](CO)NC(=O)[C@H](Cc1ccccc1)NC(=O)[C@@H](NC(=O)CNC(=O)[C@H](CCC(=O)O)NC(=O)CNC(=O)[C@@H](N)Cc1c[nH]cn1)[C@@H](C)O)[C@@H](C)O)[C@@H](C)CC)[C@@H](C)CC)C(=O)N[C@@H](C)C(=O)N[C@H](C(=O)N[C@@H](CCCCN)C(=O)N[C@H](C(=O)N[C@H](C(=O)N[C@@H](CC(=O)O)C(=O)N[C@@H](CCCCN)C(=O)O)[C@@H](C)O)[C@@H](C)CC)[C@@H](C)O the Cmax was 2.51 nM (immunoaffinity LC-MS/MS; healthy human subjects, plasma; subcutaneous, 5 mg once weekly, day 36 after 6 doses, steady state, geometric mean).

Some of these lines once more:
CC(=O)N[C@H](CC(=O)O)C(=O)N[C@H](Cc1c[nH]c2ccccc12)C(=O)N[C@H](Cc1ccccc1)C(=O)N[C@H](CCCCN)C(=O)N[C@H](C)C(=O)N[C@H](Cc1ccccc1)C(=O)N[C@H](Cc1ccc(O)cc1)C(=O)N[C@H](CC(=O)O)C(=O)N[C@H](CCCCN)C(=O)N[C@@H](C(=O)N[C@H](C)C(=O)N[C@H](CCC(=O)O)C(=O)N[C@H](CCCCN)C(=O)N[C@H](Cc1ccccc1)C(=O)N[C@H](CCCCN)C(=O)N[C@H](CCC(=O)O)C(=O)N[C@H](C)C(=O)N[C@H](Cc1ccccc1)C(N)=O)C(C)C gave a Cmax of 33.6 ng/mL (human, statin-treated high-risk CHD, male, plasma; oral, 500 mg daily, day 13, 0 to 8 h, mean, undetectable set to 0).
Cc1nc(C)c(C=[N+]([O-])C(C)(C)C)nc1C has a Cmax of 9580 ng/mL (healthy human, both sexes, serum; oral, 600 mg twice daily, 7 days).
CCCOc1ccc(S(N)(=O)=O)cc1-c1nc2c(CCC)nn(C)c2c(=O)[nH]1 has a Cmax of 360 ± 110 ng/mL (healthy male humans, plasma; oral, 200 mg of udenafil, with: dapoxetine 60 mg).
